Assay results from different studies.
Compare with care: the assays were run in different laboratories.

SMILES = Cn1c(-c2ccc(C(N)=O)cc2F)nnc1C(C)(C)Oc1c(F)cc(Cl)cc1F; system = young non-Japanese adults, plasma; conditions = oral, 50 mg single dose, day 1, high-dose multiple-dose study; measurement = Cmax median; value = 490 ng/mL
SMILES = CS(=O)(=O)n1cc2c(n1)CN([C@H]1CO[C@H](c3cc(F)ccc3F)[C@@H](N)C1)C2; system = healthy Japanese men, plasma; conditions = oral, 1 mg once weekly, day 1; measurement = Cmax; value = 15.7 nM
SMILES = Cc1ccc(NC(=O)c2ccc(CN3CCN(C)CC3)cc2)cc1Nc1nccc(-c2cncc(-c3oncc3C)c2)n1; system = healthy volunteers, plasma; conditions = oral, 200.0 mg once daily, day 7, 7-day dosing, mean; measurement = Cmax; value = 5950 ng/mL
SMILES = CC(C)(C)c1cc(C(C)(C)C)c(NC(=O)c2c[nH]c3ccccc3c2=O)cc1O; system = healthy subjects, plasma; conditions = oral, 50 mg once daily, together with: tezacaftor 25 mg, itraconazole 200 mg; scale = reference: with over without itraconazole; measurement = Cmax ratio; value = 8.6
SMILES = Cc1ccc(Sc2ccccc2N2CCNCC2)c(C)c1; system = healthy men, plasma; conditions = oral, 20 mg once daily, fed, day 12; measurement = Cmax; value = 21.4 ng/mL
SMILES = Cc1nc(-c2ccc(OCC(C)C)c(C#N)c2)sc1C(=O)O; system = healthy men, plasma; conditions = oral, 40 mg, geometric mean ratio, together with: verinurad 10 mg; scale = reference: with over without verinurad; measurement = Cmax ratio; value = 87.9%
SMILES = NC(=O)c1cnc2[nH]ccc2c1N[C@@H]1[C@@H]2CC3C[C@H]1C[C@@](O)(C3)C2; system = healthy men; conditions = oral, 20 to 200 mg; scale = reference: Japanese over Caucasian; measurement = Cmax ratio; value = 1.6 fold
SMILES = Nc1nnc(CN[C@@H]2C[C@H]2c2ccc(OCc3ccccc3)cc2)o1; system = healthy young adults; conditions = oral, 1.0 mg/day, day 5, multiple dose, mean; measurement = Cmax at steady state; value = 14.1 ng/mL
SMILES = CC[C@H](C)[C@H](NC(=O)[C@H](Cc1ccccc1)NC(=O)[C@H](CCC(=O)O)NC(=O)[C@H](CCCCNC(=O)COCCOCCNC(=O)COCCOCCNC(=O)CC[C@H](NC(=O)CCCCCCCCCCCCCCCCC(=O)O)C(=O)O)NC(=O)[C@H](C)NC(=O)[C@H](C)NC(=O)[C@H](CCC(N)=O)NC(=O)CNC(=O)[C@H](CCC(=O)O)NC(=O)[C@H](CC(C)C)NC(=O)[C@H](Cc1ccc(O)cc1)NC(=O)[C@H](CO)NC(=O)[C@H](CO)NC(=O)[C@@H](NC(=O)[C@H](CC(=O)O)NC(=O)[C@H](CO)NC(=O)[C@@H](NC(=O)[C@H](Cc1ccccc1)NC(=O)[C@@H](NC(=O)CNC(=O)[C@H](CCC(=O)O)NC(=O)C(C)(C)NC(=O)[C@@H](N)Cc1cnc[nH]1)[C@@H](C)O)[C@@H](C)O)C(C)C)C(=O)N[C@@H](C)C(=O)N[C@@H](Cc1c[nH]c2ccccc12)C(=O)N[C@@H](CC(C)C)C(=O)N[C@H](C(=O)N[C@@H](CCCNC(=N)N)C(=O)NCC(=O)N[C@@H](CCCNC(=N)N)C(=O)NCC(=O)O)C(C)C; system = healthy Japanese subjects, plasma; conditions = subcutaneous, steady state, once weekly; scale = reference: 1.0 mg over 0.5 mg; measurement = Cmax ratio; value = 2.06
SMILES = CC[C@H](C)[C@H](NC(=O)[C@H](CCC(=O)O)NC(=O)[C@H](CO)NC(=O)[C@@H](NC(=O)[C@@H](N)CO)C(C)C)C(=O)N[C@@H](CCC(N)=O)C(=O)N[C@@H](CC(C)C)C(=O)N[C@@H](CCSC)C(=O)N[C@@H](Cc1cnc[nH]1)C(=O)N[C@@H](CC(N)=O)C(=O)N[C@@H](CC(C)C)C(=O)NCC(=O)N[C@@H](CCCCN)C(=O)N[C@@H](Cc1cnc[nH]1)C(=O)N[C@@H](CC(C)C)C(=O)N[C@@H](CC(N)=O)C(=O)N[C@@H](CO)C(=O)N[C@@H](CCSC)C(=O)N[C@@H](CCC(=O)O)C(=O)N[C@@H](CCCN=C(N)N)C(=O)N[C@H](C(=O)N[C@@H](CCC(=O)O)C(=O)N[C@@H](Cc1c[nH]c2ccccc12)C(=O)N[C@@H](CC(C)C)C(=O)N[C@@H](CCCN=C(N)N)C(=O)N[C@@H](CCCCN)C(=O)N[C@@H](CCCCN)C(=O)N[C@@H](CC(C)C)C(=O)N[C@@H](CCC(N)=O)C(=O)N[C@@H](CC(=O)O)C(=O)N[C@H](C(=O)N[C@@H](Cc1cnc[nH]1)C(=O)N[C@@H](CC(N)=O)C(=O)N[C@@H](Cc1ccccc1)C(=O)O)C(C)C)C(C)C; system = postmenopausal osteoporotic women; conditions = subcutaneous, 20 µg; scale = reference: thigh over abdominal wall injection; measurement = Cmax reduction; value = 18%
SMILES = CC(C)(C(=O)NCC(F)(F)C(F)(F)F)C(=O)N[C@@H]1C(=O)Nc2ccccc2-c2ccccc21; assay = measured: total drug; system = advanced breast cancer patients, plasma; conditions = oral, median; scale = reference: combination over alone; measurement = Cmax ratio; value = 18%
SMILES = C[C@@H](Oc1ccc(S(C)(=O)=O)cc1C(=O)N1C[C@@H]2C[C@]2(c2cc(C(F)(F)F)on2)C1)C(F)(F)F; system = healthy young subjects; conditions = oral, 75 mg twice daily, multiple dose; measurement = Cmax at steady state; value = 1930 nM
SMILES = CC(C)(CC(=O)N1CCCC1)NCC(=O)N1C[C@@H](F)C[C@H]1C#N; system = Chinese type 2 diabetes patients, plasma; conditions = oral, 50 mg once daily, multiple doses; measurement = Cmax at steady state; value = 119 ng/mL
SMILES = CCCN1CC(c2ccc(S(C)(=O)=O)cc2)=C(c2ccc(C)cc2)C1=O; system = healthy Chinese subjects, elderly, plasma; conditions = oral, 100 mg single dose; scale = reference: non-elderly subjects; measurement = Cmax increase; value = 39%

Some of these lines once more:
SMILES = CS(=O)(=O)n1cc2c(n1)CN([C@H]1CO[C@H](c3cc(F)ccc3F)[C@@H](N)C1)C2; system = healthy Japanese men, plasma; conditions = oral, 1 mg once weekly, day 1; measurement = Cmax; value = 15.7 nM
SMILES = Cc1ccc(NC(=O)c2ccc(CN3CCN(C)CC3)cc2)cc1Nc1nccc(-c2cncc(-c3oncc3C)c2)n1; system = healthy volunteers, plasma; conditions = oral, 200.0 mg once daily, day 7, 7-day dosing, mean; measurement = Cmax; value = 5950 ng/mL
